# Measurements gathered from unrelated publications.
# Each line is one published result; not all experiments were run side by side. Numbers after ± are the reported error. Non-standard residues stand in square brackets, D forms with d. Square brackets hold non-standard residues; d marks the D form. Bridges are numbered along the chain shown (N, C = ends). Primed or numbered codes have the meaning given here. Where no end group is shown, it is not given here. Ends that are not written are not given here. No end group written: not given here. [ ]: non-standard residue; d: D form. * marks the point of attachment.
# BIRC5: BIRC5 1-142 (Homo sapiens, UniProt O15392)
# UniProt O15392, sequence (whole entry, looked up): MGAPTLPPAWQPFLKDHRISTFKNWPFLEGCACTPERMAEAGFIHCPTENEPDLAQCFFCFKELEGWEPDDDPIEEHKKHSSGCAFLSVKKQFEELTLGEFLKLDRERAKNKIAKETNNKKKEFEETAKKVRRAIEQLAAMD
# Rbpj: Rbpj 53-474 (Mus musculus, UniProt P31266)
# UniProt P31266, sequence (whole entry, looked up): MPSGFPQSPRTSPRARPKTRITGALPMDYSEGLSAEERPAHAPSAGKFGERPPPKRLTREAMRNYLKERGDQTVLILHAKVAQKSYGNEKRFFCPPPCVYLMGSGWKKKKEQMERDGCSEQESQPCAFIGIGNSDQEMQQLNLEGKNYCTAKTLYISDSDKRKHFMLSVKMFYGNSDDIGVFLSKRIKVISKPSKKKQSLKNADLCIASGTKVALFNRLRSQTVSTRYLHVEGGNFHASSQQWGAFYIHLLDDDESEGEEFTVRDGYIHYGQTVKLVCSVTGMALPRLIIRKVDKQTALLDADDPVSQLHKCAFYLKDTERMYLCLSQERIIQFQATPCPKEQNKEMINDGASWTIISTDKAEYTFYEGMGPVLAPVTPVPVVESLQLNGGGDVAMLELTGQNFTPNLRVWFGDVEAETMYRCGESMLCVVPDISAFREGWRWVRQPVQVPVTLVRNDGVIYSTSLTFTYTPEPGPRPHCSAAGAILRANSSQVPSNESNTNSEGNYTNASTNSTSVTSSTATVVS
# B1: PDCD1 residues 25-157 C83S (Mus musculus, UniProt Q02242); chain MALEVPNGPWRSLTFYPAWLTVSEGANATFTCSLSNWSEDLMLNWNRLSPSNQTEKQAAFSNGLSQPVQDARFQIIQLPNRHDFHMNILDTRRNDSGIYLCGAISLHPKAKIEESPGAELVVTERILETSTRYPS
# UniProt P12004, sequence (whole entry, looked up): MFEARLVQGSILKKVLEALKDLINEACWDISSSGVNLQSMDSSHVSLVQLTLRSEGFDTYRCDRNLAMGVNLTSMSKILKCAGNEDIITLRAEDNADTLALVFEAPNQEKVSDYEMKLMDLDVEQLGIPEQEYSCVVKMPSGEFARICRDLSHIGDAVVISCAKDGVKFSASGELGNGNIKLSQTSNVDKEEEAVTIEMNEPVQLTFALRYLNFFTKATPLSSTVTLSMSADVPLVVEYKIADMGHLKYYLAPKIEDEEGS
# UniProt P11309, sequence (whole entry, looked up): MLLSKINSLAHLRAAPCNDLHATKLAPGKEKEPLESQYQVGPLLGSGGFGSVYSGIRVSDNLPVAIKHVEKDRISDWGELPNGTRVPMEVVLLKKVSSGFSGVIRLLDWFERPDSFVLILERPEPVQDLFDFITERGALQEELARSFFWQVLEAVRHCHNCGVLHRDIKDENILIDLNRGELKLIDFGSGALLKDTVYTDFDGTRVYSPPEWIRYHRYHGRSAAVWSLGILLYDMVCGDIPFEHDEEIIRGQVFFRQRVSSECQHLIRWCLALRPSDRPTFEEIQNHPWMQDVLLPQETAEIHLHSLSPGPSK
# UniProt P24158, sequence (whole entry, looked up): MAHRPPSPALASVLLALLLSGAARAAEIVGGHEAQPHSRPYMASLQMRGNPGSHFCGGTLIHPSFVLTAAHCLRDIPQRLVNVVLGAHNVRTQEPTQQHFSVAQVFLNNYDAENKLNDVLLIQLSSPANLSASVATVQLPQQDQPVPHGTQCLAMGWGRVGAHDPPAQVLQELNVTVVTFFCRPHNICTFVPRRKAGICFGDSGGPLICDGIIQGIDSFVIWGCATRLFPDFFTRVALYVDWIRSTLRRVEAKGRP
# UniProt Q99828, sequence (whole entry, looked up): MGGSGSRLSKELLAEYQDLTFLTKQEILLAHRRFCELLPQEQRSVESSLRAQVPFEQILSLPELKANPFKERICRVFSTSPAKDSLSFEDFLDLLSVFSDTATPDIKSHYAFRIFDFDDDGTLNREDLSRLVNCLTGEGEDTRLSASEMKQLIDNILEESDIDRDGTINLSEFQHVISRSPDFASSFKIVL
# UniProt Q18179, sequence (whole entry, looked up): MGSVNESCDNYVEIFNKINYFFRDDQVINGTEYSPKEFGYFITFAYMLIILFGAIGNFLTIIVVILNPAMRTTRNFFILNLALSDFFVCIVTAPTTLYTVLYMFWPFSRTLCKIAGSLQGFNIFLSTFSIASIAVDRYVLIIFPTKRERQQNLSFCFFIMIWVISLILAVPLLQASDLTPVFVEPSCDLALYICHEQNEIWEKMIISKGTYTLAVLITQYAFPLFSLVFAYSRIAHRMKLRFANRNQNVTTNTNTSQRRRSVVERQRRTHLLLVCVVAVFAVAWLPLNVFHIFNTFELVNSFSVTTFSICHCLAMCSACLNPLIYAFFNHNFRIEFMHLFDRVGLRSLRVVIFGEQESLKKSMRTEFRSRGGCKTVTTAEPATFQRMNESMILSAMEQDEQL
# UniProt P07724, sequence (whole entry, looked up): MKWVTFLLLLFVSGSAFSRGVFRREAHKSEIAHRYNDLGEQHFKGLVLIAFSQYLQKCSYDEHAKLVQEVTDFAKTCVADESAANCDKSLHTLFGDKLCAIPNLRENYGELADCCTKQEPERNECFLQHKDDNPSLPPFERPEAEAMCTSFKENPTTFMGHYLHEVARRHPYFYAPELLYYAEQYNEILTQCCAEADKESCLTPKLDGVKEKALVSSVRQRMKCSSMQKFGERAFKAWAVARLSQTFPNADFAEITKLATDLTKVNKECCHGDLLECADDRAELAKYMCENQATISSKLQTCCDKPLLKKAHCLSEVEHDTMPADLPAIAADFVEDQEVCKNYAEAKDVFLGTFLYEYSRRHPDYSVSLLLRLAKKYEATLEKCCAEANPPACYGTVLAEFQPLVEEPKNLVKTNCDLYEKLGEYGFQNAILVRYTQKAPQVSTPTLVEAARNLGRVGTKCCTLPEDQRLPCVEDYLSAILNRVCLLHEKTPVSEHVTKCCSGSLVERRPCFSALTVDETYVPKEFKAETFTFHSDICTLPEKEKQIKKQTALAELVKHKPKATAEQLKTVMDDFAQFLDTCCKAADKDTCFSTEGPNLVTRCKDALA
# UniProt Q13009, sequence (whole entry, looked up): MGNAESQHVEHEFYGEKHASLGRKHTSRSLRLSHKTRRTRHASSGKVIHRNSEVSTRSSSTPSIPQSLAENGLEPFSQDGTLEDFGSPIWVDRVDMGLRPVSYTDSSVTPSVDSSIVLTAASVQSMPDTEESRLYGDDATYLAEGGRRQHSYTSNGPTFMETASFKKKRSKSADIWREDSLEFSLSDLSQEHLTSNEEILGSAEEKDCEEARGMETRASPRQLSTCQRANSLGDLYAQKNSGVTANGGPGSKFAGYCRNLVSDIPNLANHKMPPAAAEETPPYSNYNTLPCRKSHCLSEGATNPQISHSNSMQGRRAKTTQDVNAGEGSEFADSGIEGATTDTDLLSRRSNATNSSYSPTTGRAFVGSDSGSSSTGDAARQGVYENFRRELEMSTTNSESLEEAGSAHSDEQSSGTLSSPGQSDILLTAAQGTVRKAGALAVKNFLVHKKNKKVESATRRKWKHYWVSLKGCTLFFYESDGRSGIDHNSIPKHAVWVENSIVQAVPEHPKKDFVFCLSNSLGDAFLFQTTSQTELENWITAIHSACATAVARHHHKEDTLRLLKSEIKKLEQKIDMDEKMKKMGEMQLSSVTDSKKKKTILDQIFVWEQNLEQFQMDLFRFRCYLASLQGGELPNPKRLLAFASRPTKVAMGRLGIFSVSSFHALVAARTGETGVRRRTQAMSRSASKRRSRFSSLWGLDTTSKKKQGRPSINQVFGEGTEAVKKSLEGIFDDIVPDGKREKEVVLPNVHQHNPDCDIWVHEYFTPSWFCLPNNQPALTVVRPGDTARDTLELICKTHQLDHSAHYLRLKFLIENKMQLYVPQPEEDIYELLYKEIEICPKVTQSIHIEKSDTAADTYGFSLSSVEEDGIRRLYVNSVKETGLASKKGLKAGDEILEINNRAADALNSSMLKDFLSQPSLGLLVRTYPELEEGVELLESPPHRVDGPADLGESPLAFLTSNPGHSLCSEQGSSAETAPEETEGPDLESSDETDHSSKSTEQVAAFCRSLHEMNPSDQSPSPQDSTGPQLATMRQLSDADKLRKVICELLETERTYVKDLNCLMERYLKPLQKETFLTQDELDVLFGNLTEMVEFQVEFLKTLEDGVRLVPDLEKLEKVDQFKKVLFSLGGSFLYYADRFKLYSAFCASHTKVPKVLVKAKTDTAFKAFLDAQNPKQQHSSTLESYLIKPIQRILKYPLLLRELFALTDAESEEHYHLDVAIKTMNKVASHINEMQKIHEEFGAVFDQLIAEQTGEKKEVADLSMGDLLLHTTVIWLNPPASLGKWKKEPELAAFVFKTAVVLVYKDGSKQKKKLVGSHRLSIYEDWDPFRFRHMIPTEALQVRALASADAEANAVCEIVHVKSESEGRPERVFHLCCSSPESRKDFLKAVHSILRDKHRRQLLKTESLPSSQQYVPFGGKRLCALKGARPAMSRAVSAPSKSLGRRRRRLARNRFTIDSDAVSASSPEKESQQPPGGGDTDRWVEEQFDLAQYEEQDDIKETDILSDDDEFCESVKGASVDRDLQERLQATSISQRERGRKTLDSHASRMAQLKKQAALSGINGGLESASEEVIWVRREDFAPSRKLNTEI
# UniProt Q9Y6K9, sequence (whole entry, unmodified, looked up): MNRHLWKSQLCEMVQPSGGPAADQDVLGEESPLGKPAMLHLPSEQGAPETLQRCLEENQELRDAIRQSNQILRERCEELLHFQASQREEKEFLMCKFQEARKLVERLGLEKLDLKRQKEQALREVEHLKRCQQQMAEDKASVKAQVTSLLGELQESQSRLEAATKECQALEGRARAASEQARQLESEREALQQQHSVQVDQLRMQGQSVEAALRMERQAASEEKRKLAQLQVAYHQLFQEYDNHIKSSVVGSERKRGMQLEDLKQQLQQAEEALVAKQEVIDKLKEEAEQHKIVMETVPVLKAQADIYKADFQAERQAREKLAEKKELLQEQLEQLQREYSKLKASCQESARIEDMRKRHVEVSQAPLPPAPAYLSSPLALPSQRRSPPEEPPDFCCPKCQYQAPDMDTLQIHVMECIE
# UniProt P38927, sequence (whole entry, looked up): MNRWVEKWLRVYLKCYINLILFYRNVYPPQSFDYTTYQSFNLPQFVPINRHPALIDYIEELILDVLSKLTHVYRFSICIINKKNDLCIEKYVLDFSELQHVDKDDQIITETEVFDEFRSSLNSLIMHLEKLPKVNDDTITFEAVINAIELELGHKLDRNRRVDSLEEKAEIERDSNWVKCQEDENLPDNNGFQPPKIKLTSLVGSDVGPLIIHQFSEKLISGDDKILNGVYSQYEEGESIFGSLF
Substance,target or system,test,system,setting,quantity,result
B1 (PDCD1 residues 25-157 C83S),CD274 ectodomain (Homo sapiens),SPR,,"pH 7.5, 25 °C, NaCl 150 mM",Kd,3200 ± 300 nM
"RLIEDICLPRWGCLWEDDK-NH2 (cyclic albumin-binding peptide; disulfide 7-13; Cys7-Cys13 disulfide, C-terminal amide)","Alb (Mus musculus, UniProt P07724)",SPR,peptide,,Kd,65 nM
"AR[pT]K(Ac)QTARKSTG (histone H3 2-13 (UniProt P68431); pT3, acetyl K4; pT = C[C@@H](OP(=O)(O)O)[C@H](N)C(=O)O; sequence looked up)",BIRC5,ITC,peptide,pH 7.2,Kd,15400 ± 800 nM
"MENVAKATATTTWMVPTAQ (L3MBTL3 52-70 K56A (Homo sapiens, UniProt Q96JM7-2); sequence looked up)",Rbpj,ITC,peptide,"pH 6.5, 25 °C, NaCl 150 mM, DMSO 5%",Kd,1800 nM
Dansyl-TKQEEF[pY]A (SDC1 peptide residues 303-310 (Homo sapiens); pY309/N-terminal dansyl; Dansyl = CN(C)c1cccc2c(S(=O)(=O)*)cccc12; pY = N[C@@H](Cc1ccc(OP(=O)(O)O)cc1)C(=O)O),"TIAM1 841-930 (Homo sapiens, UniProt Q13009)",fluorescence anisotropy,peptide,25 °C,Kd,19300 ± 1500 nM
MPIFLDHILNKFLILHYA (SPAM peptide parental),CD274 extracellular domain (Homo sapiens),SPR,peptide,,Kd,36 ± 29 nM
AR[pT]KQTARKSTG (H3C1 1-12; pT3; pT = C[C@@H](OP(=O)(O)O)[C@H](N)C(=O)O),"birc5.1 R89H (Xenopus laevis, UniProt Q8JGN5)",ITC,peptide,"pH 7.8, 25 °C, NaCl 50 mM",Kd,4800 ± 500 nM
"Ac-QTSMTDFYHS-NH2 (p21 peptide 144-153 (Homo sapiens); N-acetyl, C-terminal amide)","PCNA 1-261 (Homo sapiens, UniProt P12004)",ITC,peptide,"pH 7.4, 25 °C, NaCl 100 mM",Kd,32900 nM
{FITC′}-KETKPLVHPNKNRTRGPRRKLPTRV (BSP1 552-576 (Saccharomyces cerevisiae); N-terminal FITC; FITC′ = fluorescein isothiocyanate),CAP1/CAP2 (Saccharomyces cerevisiae),fluorescence polarisation,peptide,,Kd,34 nM
"RmS-3, glycosylated (Rhipicephalus microplus)",chymotrypsin (Bos taurus),"chromogenic substrate hydrolysis, inhibitor",,1 µM,protease inhibition,96.9%
MWSRSDHNLNKFWILHYSANPS (peptide),CD274 extracellular domain (Homo sapiens),BLI,peptide,,Kd,0.303 nM
"MENVKKATAATTWMVPTAQ (L3MBTL3 52-70 T61A (Homo sapiens, UniProt Q96JM7-2); sequence looked up)",Rbpj,ITC,peptide,"pH 6.5, 25 °C, NaCl 150 mM, one site model",Kd,1700 nM
{TAMRA}-ADISTFASAINNAGRLRY-NH2 (flp-34 FLP-34-1 (Caenorhabditis elegans); N-terminal TAMRA; C-terminal amide; TAMRA = 5(6)-carboxytetramethylrhodamine),"npr-11 (Caenorhabditis elegans, UniProt Q18179)",NanoBRET saturation binding,"peptide, HEK293, membranes","pH 7.4, room temperature",Kd,388 nM
"MENVKKATATTTWMVPAAQ (L3MBTL3 52-70 T68A (Homo sapiens, UniProt Q96JM7-2); sequence looked up)",Rbpj,ITC,peptide,"pH 6.5, 25 °C, NaCl 150 mM, one site model",Kd,1200 nM
"PAKKSEELVAEAHNLSTLLENAIQDTVREQDQSFTALDWSWLQTE (IKBKB 701-745 C716S (Homo sapiens, UniProt O14920); sequence looked up)","IKBKG 2-419 C11A/C76A/C95A/C131A/C167A (Homo sapiens, UniProt Q9Y6K9)","competition with labelled peptide, fluorescence polarisation",,pH 7.4,Kd,32 nM
"RmS-17, glycosylated (Rhipicephalus microplus)","PRTN3 (Homo sapiens, UniProt P24158)","chromogenic substrate hydrolysis, inhibitor",,1 µM,protease inhibition,< 20%
"AR[pT][Lys(Me2)]QTARKSTG (histone H3 2-13 (UniProt P68431); pT3, K4me2; pT = C[C@@H](OP(=O)(O)O)[C@H](N)C(=O)O; Lys(Me2) = CN(C)CCCC[C@H](N)C(=O)O; sequence looked up)",BIRC5,ITC,peptide,pH 7.2,Kd,2820 ± 160 nM
KRRQVSITGFFHSKR-NH2 (CDKN1A/POLD3 (Homo sapiens); C-terminal amide),"PCNA (Homo sapiens, UniProt P12004)",SPR,peptide,,Kd,124 nM
melittin,,isothermal titration calorimetry,POPC/POPG LUVs 75:25%,"100 µM, pH 7.0, 60 °C",partitioning enthalpy,-22.4 kcal/mol
"MENVKAATATTTWMVPTAQ (L3MBTL3 52-70 K57A (Homo sapiens, UniProt Q96JM7-2); sequence looked up)",Rbpj,ITC,peptide,"pH 6.5, 25 °C, NaCl 150 mM, one site model",Kd,5300 nM
"LVQKYCELHPLKPGCG (designed peptide; N-terminal bipyridyl thioether macrocycle, C-terminal amide)",BRD4 fragment (Homo sapiens),SPR,peptide,,Kd,5.1 nM
KRRDSKITDHFHSKR-NH2 (CDKN1A/PARG (Homo sapiens); C-terminal amide),"PCNA (Homo sapiens, UniProt P12004)",SPR,peptide,,Kd,90 nM
"MENAKKATATTTWMVPTAQ (L3MBTL3 52-70 V55A (Homo sapiens, UniProt Q96JM7-2); sequence looked up)",Rbpj,ITC,peptide,"pH 6.5, 25 °C, NaCl 150 mM, one site model",Kd,870 nM
"{FITC}-GFID[pS]D[pT]DVEEE-NH2 (peptide; N-terminal FITC, pS5, pT7, C-terminal amide; FITC = O=C1OC2(c3ccc(O)cc3Oc3cc(O)ccc32)c2ccc(NC(=S)*)cc21; pS = N[C@@H](COP(=O)(O)O)C(=O)O; pT = C[C@@H](OP(=O)(O)O)[C@H](N)C(=O)O)","Topbp1 553-749 (Mus musculus, UniProt Q6ZQF0)",fluorescence polarisation,peptide,"pH 7.5, NaCl 150 mM",Kd,170000 ± 20000 nM
"KPTFDMFSSWKYALKPPTYDAVQKWYNKVPSMGNK (REV3 595-629 (Saccharomyces cerevisiae, UniProt P14284))","REV7 1-245 (Saccharomyces cerevisiae, UniProt P38927)",ITC,peptide,"pH 8.4, 25 °C, NaCl 100 mM",Kd,19.6 ± 6 nM
KRRQGRLDDFFHSKR-NH2 (CDKN1A/FEN1 (Homo sapiens); C-terminal amide),"PCNA (Homo sapiens, UniProt P12004)",SPR,peptide,,Kd,166 nM
RRRRRRRRKKPGLRRRQT (CDKN1B 189-198 (Homo sapiens)),"PIM1 (Homo sapiens, UniProt P11309)",SPR,peptide,,Kd,323 nM
EDGGSFAYGAMKALYG (designed peptide W2A),"CIB1 (Homo sapiens, UniProt Q99828)",ITC,peptide,"25 °C, together with: CaCl2 0.1 mM",Kd,3910 nM
YAG[pS][pT]DENTDSE (XRCC1 residues 515-526 (Homo sapiens); pS518/pT519; pS = N[C@@H](COP(=O)(O)O)C(=O)O; pT = C[C@@H](OP(=O)(O)O)[C@H](N)C(=O)O),"PNKP (Homo sapiens, UniProt Q96T60)",ITC,peptide,,Kd,1570 nM
"PATPTASSSSSTTPT (TP53BP1 1636-1650 (Homo sapiens, UniProt Q12888); sequence looked up)","SPOP 28-164 S119D (Homo sapiens, UniProt O43791)",ITC,peptide,"10 °C, NaCl 100 mM, one-site model",Kd,42500 ± 4400 nM
"KRRQTSMDDFYHSKR-NH2 (CDKN1A 141-155 T148D (Homo sapiens, UniProt P38936); C-terminal amide)","PCNA (Homo sapiens, UniProt P12004)",SPR,peptide,,Kd,96.5 nM
"MENVKKATATTTWMVPTAQ (L3MBTL3 52-70 (Homo sapiens, UniProt Q96JM7-2); sequence looked up)",Rbpj,ITC,peptide,"pH 6.5, 25 °C, NaCl 150 mM, DMSO 5%",Kd,900 nM
CNSRQTDREDELI,,,"peptide, human polyclonal IgM RF STR","concentration not given, 5 µg/mL mAb II-481 coated, together with: RF at 50% max binding concentration",inhibition,0%
KRRKHTLDIFFHSKR-NH2 (CDKN1A/POLK p21 peptide with POLK PIP-box (Homo sapiens); C-terminal amide),"PCNA (Homo sapiens, UniProt P12004)",SPR,peptide,,Kd,3300 nM
"ARSPLLPVSVPTAPEVSEESHKPTEDSANVYEQDDLSEQMASLEGLMKQLNAITGSAF (DCC 1390-1447 (Homo sapiens, UniProt P43146); sequence looked up)","MYO10 MyTH4-FERM 1486-2058 del1872-1891 (Homo sapiens, UniProt Q9HD67)",ITC,peptide,,Kd,530 ± 60 nM
"MWPHRVTAAK (peptide; cyclic DSG, fluorescein)","MAP1LC3B (Homo sapiens, UniProt Q9GZQ8)",fluorescence polarisation,peptide,,Kd,194 ± 52 nM

# Some of these lines once more:
Substance,target or system,test,system,setting,quantity,result
KRRDSKITDHFHSKR-NH2 (CDKN1A/PARG (Homo sapiens); C-terminal amide),"PCNA (Homo sapiens, UniProt P12004)",SPR,peptide,,Kd,90 nM
"MENVAKATATTTWMVPTAQ (L3MBTL3 52-70 K56A (Homo sapiens, UniProt Q96JM7-2); sequence looked up)",Rbpj,ITC,peptide,"pH 6.5, 25 °C, NaCl 150 mM, DMSO 5%",Kd,1800 nM
"MWPHRVTAAK (peptide; cyclic DSG, fluorescein)","MAP1LC3B (Homo sapiens, UniProt Q9GZQ8)",fluorescence polarisation,peptide,,Kd,194 ± 52 nM
"MENVKKATAATTWMVPTAQ (L3MBTL3 52-70 T61A (Homo sapiens, UniProt Q96JM7-2); sequence looked up)",Rbpj,ITC,peptide,"pH 6.5, 25 °C, NaCl 150 mM, one site model",Kd,1700 nM
